Measurements from different studies.
Every numbered part comes from another study and shows a few of its results, in no order. Changes are numbered by the printed parent chain.
UniProt O15294, sequence (whole entry, looked up): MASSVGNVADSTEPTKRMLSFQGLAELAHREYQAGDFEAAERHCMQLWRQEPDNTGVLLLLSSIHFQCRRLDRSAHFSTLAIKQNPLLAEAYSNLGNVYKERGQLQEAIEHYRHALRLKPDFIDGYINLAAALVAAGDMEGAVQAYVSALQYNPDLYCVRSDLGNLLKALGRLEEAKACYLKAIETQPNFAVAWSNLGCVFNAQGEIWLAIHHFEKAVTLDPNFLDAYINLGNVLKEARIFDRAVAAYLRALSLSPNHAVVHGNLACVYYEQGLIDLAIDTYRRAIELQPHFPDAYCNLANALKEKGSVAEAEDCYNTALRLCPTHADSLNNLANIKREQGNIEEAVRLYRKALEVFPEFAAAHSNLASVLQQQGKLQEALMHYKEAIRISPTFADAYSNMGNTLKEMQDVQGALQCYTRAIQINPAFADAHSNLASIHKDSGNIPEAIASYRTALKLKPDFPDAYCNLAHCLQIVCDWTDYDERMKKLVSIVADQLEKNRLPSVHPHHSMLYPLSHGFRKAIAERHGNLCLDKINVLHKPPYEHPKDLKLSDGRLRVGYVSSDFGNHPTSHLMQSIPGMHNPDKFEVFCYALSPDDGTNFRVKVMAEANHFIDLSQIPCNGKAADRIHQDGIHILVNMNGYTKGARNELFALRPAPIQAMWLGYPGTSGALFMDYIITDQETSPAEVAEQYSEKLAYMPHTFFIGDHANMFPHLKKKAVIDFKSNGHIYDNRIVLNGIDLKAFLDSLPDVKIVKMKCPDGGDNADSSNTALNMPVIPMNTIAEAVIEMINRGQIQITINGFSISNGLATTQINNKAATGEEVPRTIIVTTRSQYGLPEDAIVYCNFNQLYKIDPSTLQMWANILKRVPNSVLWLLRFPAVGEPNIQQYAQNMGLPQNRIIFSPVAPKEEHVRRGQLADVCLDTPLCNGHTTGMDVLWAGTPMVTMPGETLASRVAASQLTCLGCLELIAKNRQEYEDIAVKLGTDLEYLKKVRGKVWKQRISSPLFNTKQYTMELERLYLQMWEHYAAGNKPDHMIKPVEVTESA

Set 1
Target: ABI1, truncated, D143A, DHFR fusion (Arabidopsis thaliana)
Technique: DHFR PCA, deep sequencing
Matrix: yeast
Notes: methotrexate growth selection, single substitutions
With: (+)-ABA 0.0091 µM
Baseline: wild-type fitted maximum
Direction: higher = stronger binding
Endpoint: relative binding score
Starting sequence: PYL1, truncated, DHFR fusion (Arabidopsis thaliana); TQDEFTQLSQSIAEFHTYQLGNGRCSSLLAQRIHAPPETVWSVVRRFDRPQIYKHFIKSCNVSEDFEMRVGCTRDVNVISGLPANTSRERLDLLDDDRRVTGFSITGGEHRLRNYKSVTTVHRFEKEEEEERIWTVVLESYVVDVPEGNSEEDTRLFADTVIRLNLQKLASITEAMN; partner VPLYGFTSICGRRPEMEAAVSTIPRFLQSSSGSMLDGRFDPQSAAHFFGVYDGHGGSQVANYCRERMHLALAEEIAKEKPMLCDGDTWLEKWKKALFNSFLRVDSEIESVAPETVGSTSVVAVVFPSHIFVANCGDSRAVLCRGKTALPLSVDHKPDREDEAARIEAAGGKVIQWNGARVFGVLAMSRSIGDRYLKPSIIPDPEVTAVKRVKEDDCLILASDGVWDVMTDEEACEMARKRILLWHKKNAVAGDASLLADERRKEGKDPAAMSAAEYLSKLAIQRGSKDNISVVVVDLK
Variant = V136S; result = -3.68%
Variant = L91C; result = -3.17%
Variant = L8T; result = 3.06%
Variant = L8D; result = -7.6%
Variant = S11A; result = 56%
Variant = C60H; result = -5.86%
Variant = I133D; result = 52.1%
Variant = F47I; result = 2.4%

Set 2
Target: Sox-I, HMG box (Salpingoeca helianthica)
Technique: Spec-seq
Molecule type: double-stranded DNA, one strand shown
Matrix: in vitro
Concentration: not given
Notes: whole probe, mean of replicates
Baseline: not given
Direction: lower = stronger binding
Endpoint: relative binding energy
All sequences stand within: GAGTCGTCTCGTCAGCAC … CCGTAGAGCACTCAGGTC
Residues (chain): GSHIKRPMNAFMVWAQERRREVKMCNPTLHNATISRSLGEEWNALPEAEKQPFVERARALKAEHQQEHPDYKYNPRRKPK
Sequence = TGGGGTT; result = 0.946 ln ratio
Sequence = TTATGTT; result = -0.217 ln ratio
Sequence = CATGTAA; result = 0.744 ln ratio
Sequence = CGGGGTT; result = 1.2 ln ratio
Sequence = GGGAGTT; result = 0.835 ln ratio
Sequence = GTTTGTT; result = -0.898 ln ratio
Sequence = CGACGTT; result = 0.858 ln ratio
Sequence = GACGGTT; result = 0.844 ln ratio

Set 3
Target: Max-binding protein MNT, bHLH-zipper, MAX partner unstated (MNT, Homo sapiens, UniProt Q99583, residues 220-300)
Technique: protein-binding microarray
Molecule type: double-stranded DNA, one strand shown
Matrix: in vitro
Concentration: not given
Notes: k-mer, scored over probes, only values ≥0.25
Direction: higher = stronger binding
Endpoint: E-score
Target sequence (chain): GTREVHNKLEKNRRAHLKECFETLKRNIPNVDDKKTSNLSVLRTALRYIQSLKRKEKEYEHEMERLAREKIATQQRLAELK
Sequence = CTCGTGCC; result = 0.399
Sequence = ACCCCAAA; result = 0.263
Sequence = CATGTTCA; result = 0.314
Sequence = AGCATGGG; result = 0.379
Sequence = CGCCCACG; result = 0.374
Sequence = GGCGGGAC; result = 0.254
Sequence = ACTCACAT; result = 0.296
Sequence = CCTTCACG; result = 0.274

Further values, each from its own experiment
Molecule = RPYDMAYAPVYMIKY; target = UDP-N-acetylglucosamine--peptide N-acetylglucosaminyltransferase 110 kDa subunit (OGT, Homo sapiens, UniProt O15294); test = binding, phage display NGS; system = peptide; conditions = panning round 2; how to read = baseline: input library; endpoint = minimum log2 enrichment ratio; result = 2.59

Excerpt of the above (set 3):
Sequence = GGCGGGAC; result = 0.254
Sequence = ACTCACAT; result = 0.296
Sequence = CCTTCACG; result = 0.274
